Experimental data from different studies.
A part holds a random share of what one study measured. “And” joins repeats or separate records; there may be more than shown.
Chain of UniProt Q8TD08 (whole entry, looked up): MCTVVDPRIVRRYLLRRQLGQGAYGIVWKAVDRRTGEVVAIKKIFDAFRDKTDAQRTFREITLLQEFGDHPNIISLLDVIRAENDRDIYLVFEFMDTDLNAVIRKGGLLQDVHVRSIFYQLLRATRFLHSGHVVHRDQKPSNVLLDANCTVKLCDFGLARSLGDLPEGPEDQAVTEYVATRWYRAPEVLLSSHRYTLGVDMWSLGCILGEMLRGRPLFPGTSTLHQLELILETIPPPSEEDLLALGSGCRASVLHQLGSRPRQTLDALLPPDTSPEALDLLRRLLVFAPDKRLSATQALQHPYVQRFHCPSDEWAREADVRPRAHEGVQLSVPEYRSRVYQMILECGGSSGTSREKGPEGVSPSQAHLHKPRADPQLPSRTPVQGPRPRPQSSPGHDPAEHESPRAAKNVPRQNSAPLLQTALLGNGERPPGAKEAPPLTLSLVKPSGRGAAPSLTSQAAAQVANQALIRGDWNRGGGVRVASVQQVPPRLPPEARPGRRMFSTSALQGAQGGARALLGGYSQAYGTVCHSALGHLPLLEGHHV
Chain of UniProt Q8TD19 (whole entry, looked up): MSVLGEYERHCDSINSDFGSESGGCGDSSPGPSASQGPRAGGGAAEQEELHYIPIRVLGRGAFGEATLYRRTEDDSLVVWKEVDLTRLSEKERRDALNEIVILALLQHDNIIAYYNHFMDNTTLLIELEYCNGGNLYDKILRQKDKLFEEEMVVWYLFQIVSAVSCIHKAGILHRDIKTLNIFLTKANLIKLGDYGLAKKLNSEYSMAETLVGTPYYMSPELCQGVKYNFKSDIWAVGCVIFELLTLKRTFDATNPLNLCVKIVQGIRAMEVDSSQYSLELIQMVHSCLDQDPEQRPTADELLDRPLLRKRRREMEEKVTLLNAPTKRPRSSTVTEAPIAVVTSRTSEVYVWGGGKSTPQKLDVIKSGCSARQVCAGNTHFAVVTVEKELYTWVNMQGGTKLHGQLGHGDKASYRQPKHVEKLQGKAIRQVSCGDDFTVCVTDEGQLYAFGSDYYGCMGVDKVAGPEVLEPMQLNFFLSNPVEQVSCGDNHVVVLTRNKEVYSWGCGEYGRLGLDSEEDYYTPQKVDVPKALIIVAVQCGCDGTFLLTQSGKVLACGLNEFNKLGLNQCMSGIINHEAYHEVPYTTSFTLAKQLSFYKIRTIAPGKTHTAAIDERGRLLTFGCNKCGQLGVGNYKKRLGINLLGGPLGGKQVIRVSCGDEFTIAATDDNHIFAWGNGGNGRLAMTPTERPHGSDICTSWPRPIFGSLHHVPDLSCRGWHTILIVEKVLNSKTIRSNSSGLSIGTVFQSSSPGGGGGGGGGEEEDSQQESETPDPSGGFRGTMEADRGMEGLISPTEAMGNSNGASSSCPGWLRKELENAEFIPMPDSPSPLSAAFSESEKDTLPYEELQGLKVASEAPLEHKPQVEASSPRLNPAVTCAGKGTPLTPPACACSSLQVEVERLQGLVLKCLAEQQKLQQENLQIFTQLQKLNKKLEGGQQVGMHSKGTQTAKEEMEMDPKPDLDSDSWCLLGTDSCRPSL
Chain of UniProt Q86UX6 (whole entry, looked up): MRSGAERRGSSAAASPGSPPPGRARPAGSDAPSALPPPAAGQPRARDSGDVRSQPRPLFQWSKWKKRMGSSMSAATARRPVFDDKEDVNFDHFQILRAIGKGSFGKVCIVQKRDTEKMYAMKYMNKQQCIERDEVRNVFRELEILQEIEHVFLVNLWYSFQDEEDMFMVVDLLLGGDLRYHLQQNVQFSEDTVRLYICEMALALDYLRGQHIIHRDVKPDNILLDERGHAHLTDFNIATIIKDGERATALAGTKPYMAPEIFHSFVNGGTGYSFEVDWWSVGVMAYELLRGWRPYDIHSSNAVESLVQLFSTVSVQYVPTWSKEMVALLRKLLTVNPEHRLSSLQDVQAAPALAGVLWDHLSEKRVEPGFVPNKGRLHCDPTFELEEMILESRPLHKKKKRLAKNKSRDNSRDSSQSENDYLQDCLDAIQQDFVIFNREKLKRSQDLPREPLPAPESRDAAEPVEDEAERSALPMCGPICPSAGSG

Set 1
Target: Eukaryotic initiation factor 4A-III (Homo sapiens, UniProt P38919)
Chain of UniProt P38919 (whole entry, looked up): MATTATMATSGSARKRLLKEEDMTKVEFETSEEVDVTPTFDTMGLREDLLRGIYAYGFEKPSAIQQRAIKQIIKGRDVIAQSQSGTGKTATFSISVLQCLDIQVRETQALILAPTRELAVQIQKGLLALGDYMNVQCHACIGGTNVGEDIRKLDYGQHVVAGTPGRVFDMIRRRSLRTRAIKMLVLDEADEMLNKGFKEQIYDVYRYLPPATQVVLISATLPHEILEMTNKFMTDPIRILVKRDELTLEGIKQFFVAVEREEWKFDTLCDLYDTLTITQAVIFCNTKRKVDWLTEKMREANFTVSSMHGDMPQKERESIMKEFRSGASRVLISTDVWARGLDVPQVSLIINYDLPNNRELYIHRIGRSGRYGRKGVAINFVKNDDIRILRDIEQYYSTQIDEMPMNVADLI
Read-out: RNA clamping
Technique: fluorescence polarization
Concentration: concentration not given
Setting: mean of two replicates
Together with: FAM-labelled poly r(AG)8 RNA
Quantity: fluorescence polarization change
SMILES = COc1cc(OC)c2c(c1)O[C@@]1(c3ccc(Br)cc3)[C@H](c3ccccc3)[C@@H](C(=O)N(C)C)[C@@H](O)[C@@]21O; result = 41.2 mP
SMILES = COc1ccc([C@@]23Oc4cc(OC)cc(OC)c4[C@]2(O)c2nc(-c4ccc(O)cc4)[nH]c(=O)c2[C@H]3c2ccccc2)cc1; result = 9.5 mP
SMILES = COc1cc(OC)c2c(c1)O[C@@]1(c3ccc(Br)cc3)[C@H](c3ccccc3)C[C@@H](O)[C@@]21O; result = 28.2 mP
SMILES = CCOC(=O)[C@H]1[C@@H](c2ccccc2)[C@]2(c3ccc(Br)cc3)Nc3cc(OC)cc(OC)c3[C@@]1(O)[C@H]2O; result = 6.4 mP
SMILES = COc1ccc([C@@]23Oc4cc(OC)cc(OC)c4[C@]2(O)c2nc(-c4ccccc4Cl)[nH]c(=O)c2[C@H]3c2ccccc2)cc1; result = 25.9 mP
SMILES = COC(=O)[C@@H]1[C@@H](c2ccccc2)[C@]2(c3ccc(OC)cc3)Oc3cc(OC)cc(OC)c3[C@@]23OC(c2ccccc2)=N[C@@]13O; result = 4 mP
SMILES = COC(=O)[C@H]1C(=O)[C@@]2(O)c3c(OC)cc(OC)cc3O[C@@]2(c2ccc(OC)cc2)[C@@H]1c1ccccc1; result = 28.2 mP

Set 2
Target: DNA polymerase theta, ATPase domain (POLQ, Homo sapiens, UniProt O75417)
Chain of UniProt O75417 (whole entry, unmodified, looked up): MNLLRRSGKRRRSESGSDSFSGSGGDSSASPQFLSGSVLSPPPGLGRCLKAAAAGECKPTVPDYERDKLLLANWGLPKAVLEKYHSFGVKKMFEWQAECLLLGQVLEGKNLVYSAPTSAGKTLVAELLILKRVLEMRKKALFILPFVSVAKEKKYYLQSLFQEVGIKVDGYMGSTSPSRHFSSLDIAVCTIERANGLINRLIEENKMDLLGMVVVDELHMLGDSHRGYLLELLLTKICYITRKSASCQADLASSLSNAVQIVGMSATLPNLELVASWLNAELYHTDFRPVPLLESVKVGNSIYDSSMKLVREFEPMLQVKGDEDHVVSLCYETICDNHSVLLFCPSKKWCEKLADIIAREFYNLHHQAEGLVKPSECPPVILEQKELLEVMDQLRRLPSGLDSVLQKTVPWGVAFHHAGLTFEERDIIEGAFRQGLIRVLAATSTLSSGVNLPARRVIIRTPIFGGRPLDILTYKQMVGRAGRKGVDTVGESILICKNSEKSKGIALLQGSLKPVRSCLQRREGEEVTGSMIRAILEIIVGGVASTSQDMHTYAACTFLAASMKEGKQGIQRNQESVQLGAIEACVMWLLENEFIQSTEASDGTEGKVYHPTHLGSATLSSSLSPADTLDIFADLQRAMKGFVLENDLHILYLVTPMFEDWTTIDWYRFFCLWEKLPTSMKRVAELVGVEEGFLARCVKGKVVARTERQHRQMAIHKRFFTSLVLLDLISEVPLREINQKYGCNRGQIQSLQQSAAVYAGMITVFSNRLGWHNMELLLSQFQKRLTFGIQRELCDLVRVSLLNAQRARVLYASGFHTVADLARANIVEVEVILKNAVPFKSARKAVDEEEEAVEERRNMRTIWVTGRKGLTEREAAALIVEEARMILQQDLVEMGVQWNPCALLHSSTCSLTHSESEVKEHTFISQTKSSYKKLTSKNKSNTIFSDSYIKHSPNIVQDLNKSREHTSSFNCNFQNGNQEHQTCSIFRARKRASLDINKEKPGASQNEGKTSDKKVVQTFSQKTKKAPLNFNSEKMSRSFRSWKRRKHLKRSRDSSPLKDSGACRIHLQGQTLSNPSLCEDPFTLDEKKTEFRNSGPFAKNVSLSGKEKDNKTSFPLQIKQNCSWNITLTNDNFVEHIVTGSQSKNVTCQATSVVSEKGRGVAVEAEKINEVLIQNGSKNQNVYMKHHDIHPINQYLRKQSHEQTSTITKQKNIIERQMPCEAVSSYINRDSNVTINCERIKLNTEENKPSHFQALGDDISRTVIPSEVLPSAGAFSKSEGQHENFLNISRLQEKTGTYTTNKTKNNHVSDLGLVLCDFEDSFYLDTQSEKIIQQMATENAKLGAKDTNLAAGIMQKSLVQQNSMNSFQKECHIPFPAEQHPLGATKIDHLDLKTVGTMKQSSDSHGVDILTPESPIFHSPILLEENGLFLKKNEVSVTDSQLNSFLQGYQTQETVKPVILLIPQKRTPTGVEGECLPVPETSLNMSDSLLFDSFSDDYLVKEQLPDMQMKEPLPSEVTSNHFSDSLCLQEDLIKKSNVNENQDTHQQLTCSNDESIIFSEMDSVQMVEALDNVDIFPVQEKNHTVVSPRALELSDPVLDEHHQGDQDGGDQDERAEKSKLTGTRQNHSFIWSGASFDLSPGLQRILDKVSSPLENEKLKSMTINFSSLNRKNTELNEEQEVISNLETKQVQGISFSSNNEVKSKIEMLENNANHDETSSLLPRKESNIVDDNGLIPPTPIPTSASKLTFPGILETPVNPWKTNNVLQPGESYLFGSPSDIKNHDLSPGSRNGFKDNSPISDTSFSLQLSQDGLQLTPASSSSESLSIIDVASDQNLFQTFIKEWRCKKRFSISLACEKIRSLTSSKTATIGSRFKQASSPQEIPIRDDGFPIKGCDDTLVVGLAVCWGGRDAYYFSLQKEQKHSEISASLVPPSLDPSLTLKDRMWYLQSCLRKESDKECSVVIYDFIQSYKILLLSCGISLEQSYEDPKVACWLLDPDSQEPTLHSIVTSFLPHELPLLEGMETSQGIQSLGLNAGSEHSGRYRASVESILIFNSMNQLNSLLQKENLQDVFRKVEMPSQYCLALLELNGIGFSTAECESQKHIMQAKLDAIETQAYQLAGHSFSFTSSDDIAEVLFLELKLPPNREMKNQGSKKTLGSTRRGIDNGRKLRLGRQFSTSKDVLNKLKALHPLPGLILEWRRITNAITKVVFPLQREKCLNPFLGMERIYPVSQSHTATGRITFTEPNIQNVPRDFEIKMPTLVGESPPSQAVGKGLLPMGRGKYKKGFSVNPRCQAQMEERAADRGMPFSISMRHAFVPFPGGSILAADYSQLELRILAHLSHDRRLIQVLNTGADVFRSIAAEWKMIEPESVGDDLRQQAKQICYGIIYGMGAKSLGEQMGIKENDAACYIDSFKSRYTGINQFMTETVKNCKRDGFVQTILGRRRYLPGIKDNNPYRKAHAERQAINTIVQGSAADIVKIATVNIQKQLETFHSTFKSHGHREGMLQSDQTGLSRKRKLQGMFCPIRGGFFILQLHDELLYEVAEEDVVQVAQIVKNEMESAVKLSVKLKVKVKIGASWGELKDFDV
Read-out: enzyme activity
Action: inhibitor
Concentration: 77 µM
Baseline: untreated
Quantity: remaining activity
Compound = Cn1cnc(CCN)c1; result = 102%
Compound = COc1ccc(CNC(=O)/C=C/c2ccc3[nH]cc(CCN(C)C)c3c2)cc1; result = 102%
Compound = C[C@@H]1CN([C@H]2CC[C@](C#N)(c3ccc(F)cc3)CC2)CC[C@]1(C(=O)O)c1ccccc1; result = 91.7%
Compound = C[C@]12CC[C@H](O)C[C@@H]1CC[C@@H]1[C@@H]2CC[C@]2(C)C(=O)CC[C@@H]12; result = 80.4% and 99.6%
Compound = COP(=O)(OC)C(O)C(Cl)(Cl)Cl (stereo not drawn); result = 91.2%
Compound = Cc1c2ccncc2c(C)c2c1[nH]c1ccccc12; result = 102% and 105%

Set 3
Structure (SMILES): N/C(=N\[N+](=O)[O-])N/N=C\c1ccc(-c2cccc([N+](=O)[O-])c2)o1
Read-out: enzyme activity
Action: inhibitor
Concentration: 0.5 µM
Baseline: control
Quantity: remaining activity
target = Serine/threonine-protein kinase haspin (HASPIN, Homo sapiens, UniProt Q8TF76); result = 89.1%
target = Mitogen-activated protein kinase kinase kinase 7 (MAP3K7, Homo sapiens, UniProt O43318); result = 91.5%
target = High affinity nerve growth factor receptor (NTRK1, Homo sapiens, UniProt P04629); result = 96%
target = Tyrosine-protein kinase ZAP-70 (ZAP70, Homo sapiens, UniProt P43403); result = 93.1%
target = Serine/threonine-protein kinase pim-3 (PIM3, Homo sapiens, UniProt Q86V86); result = 114%
target = Protein-tyrosine kinase 6 (PTK6, Homo sapiens, UniProt Q13882); result = 101%
target = Tyrosine-protein kinase SYK (SYK, Homo sapiens, UniProt P43405); result = 91.8%
target = Cyclin-dependent kinase 6, with cyclin D1 (CDK6, Homo sapiens, UniProt Q00534); result = 100%
target = Dual specificity protein kinase TTK (TTK, Homo sapiens, UniProt P33981); result = 95.9%

Set 4
SMILES: Cn1cncc1[C@@](O)(COc1ccc(C#N)cc1-c1ccc(OC(F)(F)F)cc1)c1ccc(C#N)cc1
Technique: competition with immobilised ligand
Concentration: 1 µM
Quantity: remaining binding
target = Dual specificity mitogen-activated protein kinase kinase 3 (MAP2K3, Homo sapiens, UniProt P46734); read-out = cell-free assay; result = 100%
target = Serine/threonine-protein kinase Nek9 (NEK9, Homo sapiens, UniProt Q8TD19); read-out = cell-free assay; result = 100%
target = Serine/threonine-protein kinase D2 (PRKD2, Homo sapiens, UniProt Q9BZL6); read-out = cell-free assay; result = 100%
target = Myosin-IIIb (MYO3B, Homo sapiens, UniProt Q8WXR4); read-out = binding; result = 55%
target = Phosphatidylinositol 3-kinase catalytic subunit type 3 (PIK3C3, Homo sapiens, UniProt Q8NEB9); read-out = cell-free assay; result = 100%
target = MAP kinase-interacting serine/threonine-protein kinase 2 (MKNK2, Homo sapiens, UniProt Q9HBH9); read-out = cell-free assay; result = 74%
target = Serine/threonine-protein kinase TAO3 (TAOK3, Homo sapiens, UniProt Q9H2K8); read-out = cell-free assay; result = 100%
target = Serine/threonine-protein kinase 32C (STK32C, Homo sapiens, UniProt Q86UX6); read-out = cell-free assay; result = 80%
target = Insulin receptor-related protein (INSRR, Homo sapiens, UniProt P14616); read-out = cell-free assay; result = 96%
target = Epidermal growth factor receptor (EGFR, Homo sapiens, UniProt P00533, del747-752/P753S); read-out = cell-free assay; result = 100%
target = Serine/threonine-protein kinase SBK1 (SBK1, Homo sapiens, UniProt Q52WX2); read-out = cell-free assay; result = 100%
target = Mitogen-activated protein kinase 15 (MAPK15, Homo sapiens, UniProt Q8TD08); read-out = cell-free assay; result = 100%
target = Inhibitor of nuclear factor kappa-B kinase subunit alpha (CHUK, Homo sapiens, UniProt O15111); read-out = cell-free assay; result = 100%
target = Epidermal growth factor receptor (EGFR, Homo sapiens, UniProt P00533); read-out = cell-free assay; result = 100%
target = Cyclin-dependent kinase-like 2 (CDKL2, Homo sapiens, UniProt Q92772); read-out = binding; result = 93%
target = Mitogen-activated protein kinase kinase kinase 6 (MAP3K6, Homo sapiens, UniProt O95382); read-out = cell-free assay; result = 100%
target = Myosin light chain kinase family member 4 (MYLK4, Homo sapiens, UniProt Q86YV6); read-out = cell-free assay; result = 97%

Repeated from above (set 3):
target = Dual specificity protein kinase TTK (TTK, Homo sapiens, UniProt P33981); result = 95.9%
target = Tyrosine-protein kinase ZAP-70 (ZAP70, Homo sapiens, UniProt P43403); result = 93.1%
target = Cyclin-dependent kinase 6, with cyclin D1 (CDK6, Homo sapiens, UniProt Q00534); result = 100%
target = Mitogen-activated protein kinase kinase kinase 7 (MAP3K7, Homo sapiens, UniProt O43318); result = 91.5%
